Results from different studies.
Lines come from different studies, so protocols differ.
Target: Beta-adrenergic receptor kinase 1 (GRK2, Homo sapiens, UniProt P25098)

SMILES | assay | test system | conditions | how to read | endpoint | result
CCn1cc(C(=O)O)c(=O)c2c(N)c(F)c(NC3CCCCC3)cc21 | kinase activity | – | 0.1 µM, together with: ATP at Km | – | inhibition | 6%
Nc1ncc(-c2cc(-c3cnn(CC(F)(F)F)c3)ncc2F)nc1C(=O)NC1CNCC(F)C1 (stereo not shown) | enzyme activity | – | 1 µM | reference: DMSO control | remaining activity | 102%
Cc1cnc2nc1Nc1cccc(c1)COC/C=C/COCc1cc(ccc1OCCN1CCOCC1)N2 | binding, competition with immobilised ligand | – | 0.1 µM | – | remaining binding | 83%
NC(=O)C[C@H]1CCc2sc3ncnc(O[C@H]4CC[C@H](N5CCOCC5)CC4)c3c21 | enzyme activity, inhibitor | – | 10 µM | – | inhibition | 0%
COc1c(Cl)cccc1Nc1c(-c2ccncc2C#C[C@@]2(C)CCCN2C(=O)/C=C/CN(C)C)[nH]c2c1C(=O)NCC2 | binding, competition with immobilised ligand | – | 3 µM | – | remaining binding | 80%
CNC(=O)C[C@H](Cc1ccc(C#N)cc1)NC(=O)c1cc(-c2ccc(CN[C@H](C)c3ccc(C)cc3)o2)ccc1Cl | enzyme activity, inhibitor | – | 1 µM | – | activity vs control | 108%
NC(=O)[C@@H](O)C[C@H]1CCc2sc3ncnc(O[C@H]4CC[C@H](N5CCOCC5)CC4)c3c21 | enzyme activity, inhibitor | – | 10 µM | – | inhibition | -2%
CS(=O)(=O)Nc1cccc(-c2csc3cnc(Nc4ccc(N5CCN(CCCCCOc6cccc7c6C(=O)N(C6CCC(=O)NC6=O)C7=O)CC5)cc4)nc23)c1 (stereo not shown) | probe labelling, inhibitor, KiNativ chemoproteomics | MOLT-4 | 1 µM | – | inhibition | -20.5%
CNC(=O)C1CCN(c2cc(C)c(F)cc2NC(=O)c2ccc(-c3cc(O)ccc3C)c(C)c2)CC1 | binding, competition with immobilised ligand | – | 1 µM | – | remaining binding | 77%
CC(C)=CC1OC(C)(C)C2C=C3C(=O)C(Cl)=CC(O)C3C3C(O)C4OC4C(=O)C132 (stereo not shown) | cell-free assay, competition with immobilised ligand | – | 10 µM | – | remaining binding | 100%
C=CC(=O)N1CCCC(n2c(=O)c3ncccc3n(Cc3ccc(Oc4ccccc4)cc3)c2=O)C1 (stereo not shown) | cell-free assay, competition with immobilised ligand | – | 1 µM | – | remaining binding | 16%
Nc1ncc2c(n1)-c1c([nH]c3ccc(C4=CCOCC4)cc13)CCC2 | binding, competition with immobilised ligand | – | 1 µM | – | remaining binding | 88%
O=C(Cc1ccc(OCc2ccccc2)cc1)NC1(C(=O)O)CCN(C(=O)c2ccc(-c3cccc(Cl)c3)cc2)CC1 | enzyme activity, inhibitor | – | 10 µM | – | activity vs control | 78%
COc1cc(Nc2nccc(-c3cnn4nc(OC)ccc34)n2)cc(C(F)(F)F)c1 | binding, competition with immobilised ligand | – | 1 µM | – | remaining binding | 92%
CN1CC[C@@H](COc2cnc(C#N)cc2-c2ccn3nc(NC(=O)C4CC4)cc3c2)C1 | enzyme activity, inhibitor | – | 1 µM | – | inhibition | -14%
C=CC(=O)N1Cc2nc(-c3cc(-c4cc(Cl)cnc4Cl)c(F)cc3F)n(-c3ccncn3)c2C1 | cell-free assay, inhibitor | – | 1 µM | – | inhibition | 5%
Cc1nc2c(F)cc(-c3nc(Nc4ccc(CNC(=O)CCCCCCC(=O)NO)cc4)ncc3F)cc2n1C(C)C | enzyme activity, inhibitor | – | 1 µM | – | inhibition | 0%
CN1CCN(Cc2ccc(-c3ccc(CO[C@H]4CCC[C@@H]4NC(=O)c4cc(-c5cnn(C)c5)cnc4N)cc3)cc2)CC1 | enzyme activity, inhibitor | – | 0.1 µM | – | inhibition | 2%
O=C(Nc1cc(-c2ccnc3[nH]ccc23)c(Cl)cn1)[C@H]1CCC[C@@H](NC(=O)C(F)(F)F)C1 | binding, competition with immobilised ligand | – | 0.1 µM | – | remaining binding | 14%
